Published values from different studies.
Lines come from different studies, so protocols differ. Numbers after ± are the reported error.

For `CON=C(N)c1ccc(-c2ccc(-c3ccc(C(N)=NOC)cc3)o2)cc1`, the IC50 was 57.9 µM (HEK-293T; cell growth or viability, resazurin).
For `CC(O)[C@@]12SS[C@]3(C(=O)N1C)[C@@H](O)[C@]1([C@@]45c6ccccc6N[C@@H]4N4C(=O)[C@]6(C)SS[C@]4(C(=O)N6C)[C@H]5O)c4ccccc4N[C@@H]1N3C2=O` (stereo partly drawn), the IC50 was 0.48 µM (MDA-MB-435; cell growth or viability, SRB).
With `CCC/C=C1\OC(=O)C2=CC3CCC21[C@]1(OC(=O)c2ccccc21)[C@@H]3CCC` (stereo partly drawn) the IC50 was 2.9 ± 0.1 µM (Hepa-1c1c7; cytotoxicity, crystal violet; 48 h).
With `O=S(=O)([O-])C(F)(F)F.OCc1ccnc(-c2cc(CO)ccn2)c1.[Ru+2].c1cc[cH-]c1.c1ccc(P(c2ccccc2)c2ccccc2)cc1` the IC50 was 19 µM (HEK293 overexpressing BCRP; cell growth, MTT; 48 h).
With `CCCC(=O)N(C(=O)CCC)C1=C(Cl)C(=O)c2ccccc2C1=O` the IC50 was 21.7 ± 1.45 µM (BALB/c 3T3 clone A31; cytotoxicity, MTT; 48 h).
`CN[C@H](C(=O)N[C@H](C(=O)N(C)[C@H](c1noc(=O)[nH]1)C(C)C)C(C)C)C(C)(C)c1ccccc1` has an IC50 of over 10 µM (Jurkat; cell growth or viability, MTT).
`CC[C@@]12SS[C@]3(C(=O)N1C)[C@@H](O)[C@]1(C45c6ccccc6N[C@@H]4N4C(=O)[C@@]6(CC)SS[C@@]4(C(=O)N6C)[C@H]5O)c4ccccc4N[C@@H]1N3C2=O` (stereo partly drawn) has an IC50 of 0.1 µM (MDA-MB-435; cell growth or viability, SRB).
For `O=C(/C=C/C=C/c1ccc([N+](=O)[O-])cc1)c1ccc(Cl)cc1`, the IC50 was 696 µM (Vero; cytotoxicity, MTT; 24 h).
`CC(C)=CCOc1c2occc2cc2ccc(=O)oc12` gave an IC50 of 92.4 µM (NIH3T3; cell growth or viability, MTT; 24 h).
With `CCC/C=C1\OC(=O)C23C=CCCC12C1(OC(=O)c2ccccc21)C3CCC` (stereo not drawn) the IC50 was over 20 µM (Hepa-1c1c7; cytotoxicity, crystal violet; 48 h).
With `CC(C)OC(=O)[C@@H](N)Cc1ccc(OP2(=O)CO[C@@H](Cn3ccc(N)nc3=O)CO2)cc1` (mixture of isomers) the IC50 was over 100 µM (HFF; cytotoxicity; TFA salt).
The IC50 of `CN1C(=O)[C@@]23C[C@]4([C@@]56c7ccccc7N[C@@H]5N5C(=O)[C@]7(C)SS[C@]5(C(=O)N7C)[C@H]6O)c5ccccc5N[C@@H]4N2C(=O)[C@]1(C)SS3` is reported as 0.04 µM (SF-268; cell growth or viability, SRB).
The IC50 of `CC1(C)O[C@@H]1COc1c2occc2cc2ccc(=O)oc12` is reported as 70.9 µM (NIH3T3; cell growth or viability, MTT; 24 h).
`CC[C@@]12SS[C@]3(C(=O)N1C)[C@@H](O)C1(C45c6ccccc6N[C@@H]4N4C(=O)[C@]6([C@@H](C)O)SS[C@]4(C(=O)N6C)[C@H]5O)c4ccccc4N[C@@H]1N3C2=O` (stereo partly drawn) has an IC50 of 0.08 µM (MDA-MB-435; cell growth or viability, SRB).
For `CCC/C=C1\OC(=O)C2=C1CC[C@@H](O)[C@@H]2O`, the IC50 was over 20 µM (Hepa-1c1c7; cytotoxicity, crystal violet; 48 h).
